Experimental data gathered from unrelated publications.
Lines come from different studies, so protocols differ. Values joined by “and” are separate records of one study, mostly repeats; a detail may differ. ± marks the error that the study gave.
DRD4: D(4) dopamine receptor (DRD4, Homo sapiens, UniProt P21917)
Sequence of UniProt P20813 (whole entry, looked up): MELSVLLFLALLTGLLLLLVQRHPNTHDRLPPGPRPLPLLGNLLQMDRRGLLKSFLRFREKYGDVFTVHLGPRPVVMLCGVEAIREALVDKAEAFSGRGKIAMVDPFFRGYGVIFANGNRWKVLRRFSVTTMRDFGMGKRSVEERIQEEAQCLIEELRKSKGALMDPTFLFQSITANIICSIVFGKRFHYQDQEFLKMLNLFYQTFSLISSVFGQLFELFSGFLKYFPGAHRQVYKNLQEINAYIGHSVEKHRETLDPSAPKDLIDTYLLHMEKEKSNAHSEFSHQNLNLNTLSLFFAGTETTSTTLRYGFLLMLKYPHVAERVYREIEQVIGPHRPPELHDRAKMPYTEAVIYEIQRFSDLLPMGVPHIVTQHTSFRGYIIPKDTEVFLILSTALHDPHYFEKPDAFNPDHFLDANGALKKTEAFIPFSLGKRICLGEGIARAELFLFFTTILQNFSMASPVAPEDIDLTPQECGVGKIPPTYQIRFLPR
Sequence of UniProt P21917 (whole entry, looked up): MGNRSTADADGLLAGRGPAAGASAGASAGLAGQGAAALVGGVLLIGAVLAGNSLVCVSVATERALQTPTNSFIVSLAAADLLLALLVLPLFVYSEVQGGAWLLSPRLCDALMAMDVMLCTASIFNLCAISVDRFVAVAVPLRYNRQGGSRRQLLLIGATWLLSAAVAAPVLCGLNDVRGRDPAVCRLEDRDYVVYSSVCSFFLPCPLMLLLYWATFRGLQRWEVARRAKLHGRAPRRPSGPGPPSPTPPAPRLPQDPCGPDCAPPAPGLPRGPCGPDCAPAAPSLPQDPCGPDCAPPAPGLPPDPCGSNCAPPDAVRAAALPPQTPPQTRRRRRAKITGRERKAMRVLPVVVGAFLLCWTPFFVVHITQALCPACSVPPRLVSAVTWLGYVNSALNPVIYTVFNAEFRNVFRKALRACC
Sequence of UniProt P15170 (whole entry, looked up): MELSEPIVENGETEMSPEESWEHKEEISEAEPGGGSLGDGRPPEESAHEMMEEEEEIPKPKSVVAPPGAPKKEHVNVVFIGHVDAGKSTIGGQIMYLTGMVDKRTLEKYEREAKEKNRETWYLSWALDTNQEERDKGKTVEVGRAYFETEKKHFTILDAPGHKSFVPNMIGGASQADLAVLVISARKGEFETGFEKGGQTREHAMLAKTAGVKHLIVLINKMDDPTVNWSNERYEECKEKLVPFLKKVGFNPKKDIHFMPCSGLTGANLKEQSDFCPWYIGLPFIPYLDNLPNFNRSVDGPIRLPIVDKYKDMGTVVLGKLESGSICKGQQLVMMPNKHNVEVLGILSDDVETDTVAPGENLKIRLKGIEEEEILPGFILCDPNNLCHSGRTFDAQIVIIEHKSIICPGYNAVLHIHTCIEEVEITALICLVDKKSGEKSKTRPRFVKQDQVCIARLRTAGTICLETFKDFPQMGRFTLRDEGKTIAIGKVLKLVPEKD
Sequence of UniProt O14920 (whole entry, looked up): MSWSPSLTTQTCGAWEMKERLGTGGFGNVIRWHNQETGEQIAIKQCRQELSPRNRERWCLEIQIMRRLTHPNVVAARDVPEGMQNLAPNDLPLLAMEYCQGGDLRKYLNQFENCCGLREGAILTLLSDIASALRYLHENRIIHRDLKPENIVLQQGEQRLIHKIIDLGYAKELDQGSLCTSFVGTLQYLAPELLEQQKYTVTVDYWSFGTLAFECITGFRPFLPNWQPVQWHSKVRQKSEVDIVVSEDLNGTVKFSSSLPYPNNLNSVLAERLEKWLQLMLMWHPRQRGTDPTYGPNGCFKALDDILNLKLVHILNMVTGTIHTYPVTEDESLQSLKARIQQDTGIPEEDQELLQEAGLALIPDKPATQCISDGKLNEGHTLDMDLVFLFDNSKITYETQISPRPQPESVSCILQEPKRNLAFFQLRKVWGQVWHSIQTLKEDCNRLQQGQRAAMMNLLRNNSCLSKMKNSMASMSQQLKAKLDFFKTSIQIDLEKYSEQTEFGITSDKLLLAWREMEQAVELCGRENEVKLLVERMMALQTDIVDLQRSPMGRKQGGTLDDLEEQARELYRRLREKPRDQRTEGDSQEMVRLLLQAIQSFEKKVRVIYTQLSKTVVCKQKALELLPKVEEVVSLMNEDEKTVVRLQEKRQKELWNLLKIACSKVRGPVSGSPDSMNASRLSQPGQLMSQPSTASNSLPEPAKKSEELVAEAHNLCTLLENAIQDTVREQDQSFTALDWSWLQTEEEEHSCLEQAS
Sequence of UniProt Q92851 (whole entry, looked up): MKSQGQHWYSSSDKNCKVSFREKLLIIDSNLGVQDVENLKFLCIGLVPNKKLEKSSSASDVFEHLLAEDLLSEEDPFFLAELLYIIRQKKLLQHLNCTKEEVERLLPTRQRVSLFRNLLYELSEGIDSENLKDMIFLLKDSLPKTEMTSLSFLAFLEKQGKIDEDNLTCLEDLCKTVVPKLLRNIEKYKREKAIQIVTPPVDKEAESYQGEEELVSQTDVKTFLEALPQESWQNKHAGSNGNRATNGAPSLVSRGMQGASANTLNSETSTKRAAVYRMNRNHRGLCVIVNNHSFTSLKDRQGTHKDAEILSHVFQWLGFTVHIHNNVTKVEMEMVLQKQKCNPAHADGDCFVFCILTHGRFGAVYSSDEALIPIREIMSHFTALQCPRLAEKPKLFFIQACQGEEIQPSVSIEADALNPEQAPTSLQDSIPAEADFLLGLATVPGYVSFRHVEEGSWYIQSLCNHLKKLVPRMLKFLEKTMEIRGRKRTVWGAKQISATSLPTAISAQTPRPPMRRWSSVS
Sequence of UniProt Q14790 (whole entry, looked up): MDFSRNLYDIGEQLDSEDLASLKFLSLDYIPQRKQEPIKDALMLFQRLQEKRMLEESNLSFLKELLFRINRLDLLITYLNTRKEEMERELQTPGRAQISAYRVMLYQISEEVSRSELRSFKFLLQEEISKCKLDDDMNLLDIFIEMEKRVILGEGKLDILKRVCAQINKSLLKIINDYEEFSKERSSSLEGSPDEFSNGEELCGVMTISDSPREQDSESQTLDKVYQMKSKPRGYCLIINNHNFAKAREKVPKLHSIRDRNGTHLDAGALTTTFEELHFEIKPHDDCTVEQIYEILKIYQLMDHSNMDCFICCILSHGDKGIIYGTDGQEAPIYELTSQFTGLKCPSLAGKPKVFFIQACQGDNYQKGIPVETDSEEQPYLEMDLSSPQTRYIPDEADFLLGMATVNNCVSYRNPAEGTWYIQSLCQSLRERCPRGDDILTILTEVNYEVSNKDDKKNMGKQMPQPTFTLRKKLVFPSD

Compound	target or system	test	system	setting	scale	quantity	value
CNS(=O)(=O)Nc1nccc(Cc2c(C)c3ccc(Oc4ncccc4F)cc3oc2=O)c1F	OCUG-1	cell viability	–	7 days	–	IC50	> 1000 nM
Cc1nn(-c2cccc(N)c2)c(=O)c2cnc(Nc3ccc(N4CCNCC4)cc3)nc12	IKBKB (Homo sapiens, UniProt O14920)	enzyme activity, inhibitor	–	–	–	IC50	> 10000 nM
CCN(CC)CC(=O)Nc1cccc(-n2cc(-c3ccc4ccc(-c5cn(-c6cccc(NC(=O)CN(CC)CC)c6)nn5)cc4c3)nn2)c1	RCC4	PCR angiogenesis array, measured: VEGFB	–	5 x IC50, 6 h, normoxia	relative to: untreated	fold regulation	1.05 fold
O=C1C2CC3CC1CC(C(=O)N1CCN(c4ccc([N+](=O)[O-])c5ncccc45)CC1)(C3)C2	Salmonella typhimurium	Ames test	TA98	0.02 µg/well, without S9	–	mean revertant colonies	6 colonies/well
C=C1CC[C@H](OCCCNC(=O)CCOCCOCCOCCOCCOCCOCCOCCOCCOCCOCCOCCOCCOCCOCCOCCOCCOCCOCCOCCOCCOCCOCCOCCOCCOCCOCCOCCOCCOCCOCCOCCOCCOCCOCCOCCOCCNC(=O)CCN2C(=O)CC(SC[C@H](NC(=O)[C@H](Cc3ccccc3)NC(=O)[C@H](CC(N)=O)NC(=O)[C@H](Cc3c[nH]cn3)NC(=O)[C@@H](NC(=O)[C@H](CC(=O)O)NC(=O)[C@H](CCC(N)=O)NC(=O)[C@H](CC(C)C)NC(=O)[C@H](CCCCN)NC(=O)[C@H](CCCCN)NC(=O)[C@H](CCCNC(=N)N)NC(=O)[C@H](CC(C)C)NC(=O)[C@H](Cc3c[nH]c4ccccc34)NC(=O)[C@H](CCC(=O)O)NC(=O)[C@@H](NC(=O)[C@H](CCCNC(=N)N)NC(=O)[C@H](CCC(=O)O)NC(=O)[C@H](CCSC)NC(=O)[C@H](CO)NC(=O)[C@H](CC(N)=O)NC(=O)[C@H](CC(C)C)NC(=O)[C@H](Cc3c[nH]cn3)NC(=O)[C@H](CCCCN)NC(=O)CNC(=O)[C@H](CC(C)C)NC(=O)[C@H](CC(N)=O)NC(=O)[C@H](Cc3c[nH]cn3)NC(=O)[C@H](CCSC)NC(=O)[C@H](CC(C)C)NC(=O)[C@H](CCC(N)=O)NC(=O)[C@@H](NC(=O)[C@H](CCC(=O)O)NC(=O)[C@H](CO)NC(=O)[C@@H](NC(=O)[C@@H](N)CO)C(C)C)[C@@H](C)CC)C(C)C)C(C)C)C(=O)O)C2=O)C/C1=C/C=C1\CCC[C@]2(C)[C@@H]([C@H](C)CCCC(C)(C)O)CC[C@@H]12 (stereo partly shown)	–	–	male Sprague-Dawley rat, plasma	intravenous, 100 µg/kg, single dose	–	AUC(0-t)	4380 ng·h/mL
CCN(C(=O)c1cc(F)ccc1Oc1nncnc1N1CCC2(C1)CN([C@H](CCCN(C)CCOC)C(C)C)C2)C(C)C	L-363	cell growth or viability	–	7 days	–	GI50	> 10000 nM
Cc1cc(OCCOCCn2ccnc2)cc(C(C)C)c1	–	–	zebrafish larvae, 7 dpf	10 µM, minute 4	–	larval motion	7.8 ± 1.2 pixels/frame
CN1CCC[C@]1(C)/C=C/S(=O)(=O)NC(=O)Nc1c2c(cc3c1CCC3)CCC2	–	–	human, whole blood ex vivo	12.5 mg twice daily, day 14, 3 h, multiple ascending dose, added: LPS and ATP	–	IL-18 inhibition	107%
CCc1c(C(=O)Nc2ccc3c(c2)CN(C2CCC(=O)NC2=O)C3=O)[nH]c2c(CNC(C)=O)cccc12 (stereo not shown)	GSPT1 (Homo sapiens, UniProt P15170)	protein level, degrader, luciferase	–	–	–	DC50	> 10000 nM
N#Cc1ccc(OCC2CN(Cc3cn4nc(Cl)ccc4n3)CCC2(F)F)cc1F (stereo not shown)	DRD4	ligand displacement, radioligand	–	cell membranes	–	Ki	16.4 nM
O=C(CCN1CCN(C/C=C/c2ccccc2)CC1)Nc1ccccc1	–	–	zebrafish larvae, 7 dpf	10 µM, minute 2	–	larval motion	10 ± 1.7 pixels/frame
CN(C)C(=O)c1ccnc(N2Cc3cn(Cc4ccc(F)cc4F)nc3C2)n1	–	–	mouse, hippocampal slice, Schaffer collaterals	dose not given, interstimulus interval 400	relative to: second over first response	paired-pulse ratio	1.56 and 1.25 and 1.09 and 1.1 and 1.46 and 1.24 and 1.18
C=CC(=O)N1[C@H](c2ccc3c(c2)OCO3)c2[nH]c3ccccc3c2C[C@@H]1C(=O)N1CCN(C)CC1	human cyclin E1 N112C-3xFLAG:CDK2	co-IP with TMT proteomics, measured: KPNB1	–	concentration not given, Q14974	relative to: wild type DMSO	relative co-enrichment	116%
Cc1cc(C(C)(C)C)ccc1OCCOCCN(C)C	–	locomotor activity in dark	zebrafish larvae, 7 dpf	10 µM, minute 5, dark phase	–	larval motion	11 ± 1 pixels/frame
Cn1ncc2cc(-c3cncc(Cl)c3N3CCC4(CCNC4=O)CC3)ccc21	LS174T	gene expression, microarray, measured: TNFRSF12A mRNA	–	concentration not given, 4 h	relative to: untreated cells	log2 fold change	-1.27
CC(C)c1ccc(N(C)c2ccc3c(c2)OCC[C@H]3CNc2cnccc2C(=O)O)cc1	SK-N-SH	cell growth or viability, ATP luminescence	–	7 days	–	IC50	≥ 10000 nM
C=CC(=O)Nc1cccc(Cn2ncc3cnc(Nc4cnn(CCOC)c4)nc32)c1	DAPK3 human	binding, KINOMEscan	–	100 nM	lower = stronger binding	percent of control	100%
Cc1ccc(C)c(OCC(O)CN2CCN(c3cc(Cl)ccc3C)CC2)c1 (stereo not shown)	–	–	zebrafish larvae, 7 dpf	10 µM, minute 6	–	larval motion	0.5 ± 0.3 pixels/frame
CN1CCCNC(=O)c2cccc(c2)C(=O)NCCCN(C)CCCNc2cccc3c2C(=O)c2cccc(c2C3=O)NCCC1	SAS	RNA-Seq, measured: TXNRD1 mRNA	–	1 µM, 6 h	relative to: untreated cells	log2 fold change	0.433
CC(=O)N1C[C@H](O)C[C@H]1C(=O)N[C@H](C(=O)N[C@@H](CO)C(=O)N[C@@H](CC(=O)O)C(=O)COC(=O)c1c(C)cccc1C)C(C)C	Caspase-8 (CASP8, Homo sapiens, UniProt Q14790)	enzyme activity, inhibitor	–	–	–	kinact/KI	431000 M⁻¹ s⁻¹
COC1CN([C@H]2CC[C@H]([C@@]3(C)Oc4c(Cl)cc(C(=O)NCc5c(SC)cc(C)[nH]c5=O)c(C)c4O3)CC2)C1	–	RNA-seq, measured: BMP2 mouse homolog	mouse, HT-1376 xenograft, whole blood	dose not given	relative to: vehicle	log2 fold change	0.795
CC(=O)N[C@@H](CC(=O)O)C(=O)N[C@@H](CCC(=O)O)C(=O)N[C@@H](CC(C)C)C(=O)N[C@@H](CC(=O)O)C(=O)COC(=O)c1c(C)cccc1C	Caspase-10 (CASP10, Homo sapiens, UniProt Q92851)	inhibitor	–	recombinant enzyme	–	kobs/[I]	126000 M⁻¹ s⁻¹
Nc1ncc(-c2cc(-c3cnn(CC(F)(F)F)c3)ncc2F)nc1C(=O)NC1CNCC(F)C1 (stereo not shown)	PIK3CB	KINOMEscan	–	1 µM	relative to: DMSO control	remaining binding	93%
C=C(NC(=O)c1csc(-c2nc3c(cc2O)-c2nc(cs2)C(=O)NC(C(C)O)C(=O)NC(=C(C)OC)c2nc(cs2)C(=O)NC2c4nc(cs4)C(=O)NC(COC(=O)c4c5c6c(cccc6n4O)COC(=O)C(OC4CC(C)(O)C(N(C)C)C(C)O4)C2OC5)c2nc-3cs2)n1)C(N)=O (stereo not shown)	Streptococcus pneumoniae	–	-4, immunocompromised mice, lung infection	bid dosing	–	ED50	4.94 mg/kg
c1ccc(-c2n[nH]cc2-c2ccnc3ccccc23)nc1	MKK2 (Candida albicans)	kinase binding, MIB/MS competition	Candida albicans lysate	1 µM	relative to: DMSO	log2 fold change	0.01
COc1ccc(CN2CC(COc3ccc(F)c(F)c3)CC(F)(F)C2)cc1F (stereo not shown)	DRD4	ligand displacement, radioligand	–	cell membranes	–	Ki	210 nM
CNC(=O)C1CCCN(C(=O)C2CC3CCC2N3C(=O)[C@@H]2C[C@@H](O)CN2C(=O)NCc2cccc(Cl)c2F)C1 (mixture of isomers)	Cytochrome P450 2B6 (CYP2B6, Homo sapiens, UniProt P20813)	preincubation with NADPH	human	5.56 µM	relative to: negative control	remaining activity	104% and 89.7%
Cc1ncsc1-c1ccc(C(C)NC(=O)C2CC(O)CN2C(=O)C(NC(=O)CCCCCCCCCCN2CCCC(Nc3ncc(Cl)c(Nc4ccccc4S(=O)(=O)C(C)C)n3)C2)C(C)(C)C)cc1 (stereo not shown)	22Rv1	RNA-seq, measured: NSD1 mRNA	–	concentration not given	relative to: DMSO	log2 fold change	-1.59

A few entries again:
Compound	target or system	test	system	setting	scale	quantity	value
Cc1cc(OCCOCCn2ccnc2)cc(C(C)C)c1	–	–	zebrafish larvae, 7 dpf	10 µM, minute 4	–	larval motion	7.8 ± 1.2 pixels/frame
CN1CCC[C@]1(C)/C=C/S(=O)(=O)NC(=O)Nc1c2c(cc3c1CCC3)CCC2	–	–	human, whole blood ex vivo	12.5 mg twice daily, day 14, 3 h, multiple ascending dose, added: LPS and ATP	–	IL-18 inhibition	107%
CCc1c(C(=O)Nc2ccc3c(c2)CN(C2CCC(=O)NC2=O)C3=O)[nH]c2c(CNC(C)=O)cccc12 (stereo not shown)	GSPT1 (Homo sapiens, UniProt P15170)	protein level, degrader, luciferase	–	–	–	DC50	> 10000 nM
